Measurements collected from several papers.
Every numbered part comes from another study and shows a few of its results, in no order. “And” joins repeats or separate records; there may be more than shown.
Sequence of UniProt P48729 (whole entry, looked up): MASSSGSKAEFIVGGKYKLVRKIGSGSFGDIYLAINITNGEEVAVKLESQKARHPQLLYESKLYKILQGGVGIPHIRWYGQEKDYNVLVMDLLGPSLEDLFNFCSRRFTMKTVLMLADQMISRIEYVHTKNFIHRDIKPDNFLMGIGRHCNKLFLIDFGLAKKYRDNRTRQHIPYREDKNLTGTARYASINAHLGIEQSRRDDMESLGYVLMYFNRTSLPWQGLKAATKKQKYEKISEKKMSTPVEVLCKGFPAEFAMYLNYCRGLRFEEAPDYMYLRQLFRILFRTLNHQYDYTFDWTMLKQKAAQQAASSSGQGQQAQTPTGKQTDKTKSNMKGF
Sequence of UniProt P08581 (whole entry, looked up): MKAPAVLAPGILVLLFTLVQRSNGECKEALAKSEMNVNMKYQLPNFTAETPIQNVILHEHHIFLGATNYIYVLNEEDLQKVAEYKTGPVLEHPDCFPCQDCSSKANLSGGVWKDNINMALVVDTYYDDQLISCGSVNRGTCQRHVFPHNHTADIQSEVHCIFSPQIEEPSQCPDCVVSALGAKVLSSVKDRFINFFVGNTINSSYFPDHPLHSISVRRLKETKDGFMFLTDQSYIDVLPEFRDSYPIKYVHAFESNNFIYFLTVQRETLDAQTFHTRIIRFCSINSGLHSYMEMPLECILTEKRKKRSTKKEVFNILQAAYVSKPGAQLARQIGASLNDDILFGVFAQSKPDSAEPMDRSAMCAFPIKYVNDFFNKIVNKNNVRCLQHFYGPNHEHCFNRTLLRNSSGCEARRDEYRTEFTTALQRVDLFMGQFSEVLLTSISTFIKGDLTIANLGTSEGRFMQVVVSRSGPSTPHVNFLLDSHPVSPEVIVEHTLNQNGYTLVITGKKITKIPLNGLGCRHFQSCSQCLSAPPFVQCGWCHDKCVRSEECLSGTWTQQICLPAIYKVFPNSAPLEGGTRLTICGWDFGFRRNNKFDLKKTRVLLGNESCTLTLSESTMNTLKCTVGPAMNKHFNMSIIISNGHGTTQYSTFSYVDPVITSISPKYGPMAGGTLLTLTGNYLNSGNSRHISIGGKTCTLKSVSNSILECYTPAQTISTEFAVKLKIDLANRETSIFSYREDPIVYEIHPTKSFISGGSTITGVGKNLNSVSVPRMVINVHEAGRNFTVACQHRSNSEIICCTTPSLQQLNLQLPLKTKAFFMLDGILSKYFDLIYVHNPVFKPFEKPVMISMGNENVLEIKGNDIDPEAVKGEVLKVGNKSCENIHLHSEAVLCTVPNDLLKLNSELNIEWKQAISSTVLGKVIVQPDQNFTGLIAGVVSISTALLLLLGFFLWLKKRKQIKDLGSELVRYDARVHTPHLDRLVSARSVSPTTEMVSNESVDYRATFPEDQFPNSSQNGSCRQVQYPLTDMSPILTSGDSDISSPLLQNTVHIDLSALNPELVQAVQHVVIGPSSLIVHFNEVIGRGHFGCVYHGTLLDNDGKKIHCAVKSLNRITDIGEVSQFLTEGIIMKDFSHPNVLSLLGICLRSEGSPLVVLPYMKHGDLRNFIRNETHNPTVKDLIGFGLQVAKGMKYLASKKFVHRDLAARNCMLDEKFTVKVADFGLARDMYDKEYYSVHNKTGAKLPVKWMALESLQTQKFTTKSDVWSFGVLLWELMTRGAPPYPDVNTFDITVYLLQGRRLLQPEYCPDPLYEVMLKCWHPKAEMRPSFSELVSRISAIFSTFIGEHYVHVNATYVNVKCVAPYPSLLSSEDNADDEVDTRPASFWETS
Sequence of UniProt Q9UKS7 (whole entry, looked up): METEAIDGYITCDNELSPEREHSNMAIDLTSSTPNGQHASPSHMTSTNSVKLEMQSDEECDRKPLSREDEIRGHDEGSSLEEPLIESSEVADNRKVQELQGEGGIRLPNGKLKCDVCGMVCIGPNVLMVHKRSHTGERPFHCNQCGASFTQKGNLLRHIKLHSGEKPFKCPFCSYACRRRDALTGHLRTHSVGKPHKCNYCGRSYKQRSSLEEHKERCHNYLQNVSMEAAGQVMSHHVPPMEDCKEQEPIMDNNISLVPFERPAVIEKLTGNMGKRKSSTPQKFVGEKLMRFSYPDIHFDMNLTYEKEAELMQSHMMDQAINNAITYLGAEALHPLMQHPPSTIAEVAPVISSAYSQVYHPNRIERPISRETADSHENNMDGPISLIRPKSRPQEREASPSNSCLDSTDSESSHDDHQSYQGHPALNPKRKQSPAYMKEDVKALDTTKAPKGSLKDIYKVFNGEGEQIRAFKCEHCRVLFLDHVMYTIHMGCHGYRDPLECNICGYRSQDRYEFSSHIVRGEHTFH

Series 1
Compound: NC(N)=NC(=O)c1nc(Cl)c(N2CCCCCC2)nc1N
Effect on: β-arrestin recruitment
Action: agonist
Method: PRESTO-Tango
Tested at: 10 µM
Reference: untreated
target | fold over basal
Thyrotropin-releasing hormone receptor (TRHR, Homo sapiens, UniProt P34981) | 1.97 fold
G-protein coupled receptor 78 (GPR78, Homo sapiens, UniProt Q96P69) | 0.83
Endothelin receptor type B (EDNRB, Homo sapiens, UniProt P24530) | 0.67
Relaxin receptor 1 (RXFP1, Homo sapiens, UniProt Q9HBX9) | 0.87
Alpha-2C adrenergic receptor (ADRA2C, Homo sapiens, UniProt P18825) | 1.32
Prokineticin receptor 1 (PROKR1, Homo sapiens, UniProt Q8TCW9) | 0.95
5-hydroxytryptamine receptor 2C (HTR2C, Homo sapiens, UniProt P28335) | 0.46
Prostaglandin E2 receptor EP4 subtype (PTGER4, Homo sapiens, UniProt P35408) | 0.75
GPR32 (Homo sapiens, UniProt O75388) | 1.48

Series 2
SMILES: c1ccc(N2CCN(Cc3nc4ccccc4[nH]3)CC2)nc1
Method: competition with immobilised ligand
Tested at: 1 µM
target | assay | remaining binding
RAC-alpha serine/threonine-protein kinase (AKT1, Homo sapiens, UniProt P31749) | binding | 90%
Receptor-type tyrosine-protein kinase FLT3 (FLT3, Homo sapiens, UniProt P36888, R834Q) | binding | 100%
Casein kinase I isoform alpha (CSNK1A1, Homo sapiens, UniProt P48729) | cell-free assay | 93%
STE20/SPS1-related proline-alanine-rich protein kinase (STK39, Homo sapiens, UniProt Q9UEW8) | binding | 100%
Cyclin-dependent kinase 15 (CDK15, Homo sapiens, UniProt Q96Q40) | binding | 95%
Hepatocyte growth factor receptor (MET, Homo sapiens, UniProt P08581) | cell-free assay | 100%
Epidermal growth factor receptor (EGFR, Homo sapiens, UniProt P00533, del752-759) | cell-free assay | 90%
Phosphatidylinositol 4,5-bisphosphate 3-kinase catalytic subunit alpha isoform (PIK3CA, Homo sapiens, UniProt P42336, H1047Y) | cell-free assay | 79%
Epidermal growth factor receptor (EGFR, Homo sapiens, UniProt P00533, L861Q) | cell-free assay | 74%
Tyrosine-protein kinase Srms (SRMS, Homo sapiens, UniProt Q9H3Y6) | cell-free assay | 94%
Mitogen-activated protein kinase 12 (MAPK12, Homo sapiens, UniProt P53778) | binding | 74%
Ribosomal protein S6 kinase alpha-1, N-terminal kinase domain (RPS6KA1, Homo sapiens, UniProt Q15418) | binding | 100%
Rho-associated protein kinase 2 (ROCK2, Homo sapiens, UniProt O75116) | binding | 100%
Serine/threonine-protein kinase Nek4 (NEK4, Homo sapiens, UniProt P51957) | binding | 100%
Ribosomal protein S6 kinase alpha-2, C-terminal kinase domain (RPS6KA2, Homo sapiens, UniProt Q15349) | binding | 100%
Cyclin-dependent kinase 2 (CDK2, Homo sapiens, UniProt P24941) | binding | 100%
Calcium/calmodulin-dependent protein kinase kinase 2 (CAMKK2, Homo sapiens, UniProt Q96RR4) | binding | 91%
Phosphatidylinositol 4-phosphate 5-kinase type-1 gamma (PIP5K1C, Homo sapiens, UniProt O60331) | binding | 93%
Mitogen-activated protein kinase 11 (MAPK11, Homo sapiens, UniProt Q15759) | binding | 88%
Mitogen-activated protein kinase kinase kinase kinase 4 (MAP4K4, Homo sapiens, UniProt O95819) | binding | 100%
cGMP-dependent protein kinase 2 (PRKG2, Homo sapiens, UniProt Q13237) | binding | 100%
Tyrosine-protein kinase JAK3, JH1 (JAK3, Homo sapiens, UniProt P52333) | binding | 100%
Ribosomal protein S6 kinase alpha-6, C-terminal kinase domain (RPS6KA6, Homo sapiens, UniProt Q9UK32) | binding | 100%
Homeodomain-interacting protein kinase 2 (HIPK2, Homo sapiens, UniProt Q9H2X6) | binding | 26%
Phosphatidylinositol 4-phosphate 3-kinase C2 domain-containing subunit beta (PIK3C2B, Homo sapiens, UniProt O00750) | cell-free assay | 85%

Series 3
Target: Calcium/calmodulin-dependent protein kinase type II subunit alpha (CAMK2A, Homo sapiens, UniProt Q9UQM7)
Sequence of UniProt Q9UQM7 (whole entry, looked up): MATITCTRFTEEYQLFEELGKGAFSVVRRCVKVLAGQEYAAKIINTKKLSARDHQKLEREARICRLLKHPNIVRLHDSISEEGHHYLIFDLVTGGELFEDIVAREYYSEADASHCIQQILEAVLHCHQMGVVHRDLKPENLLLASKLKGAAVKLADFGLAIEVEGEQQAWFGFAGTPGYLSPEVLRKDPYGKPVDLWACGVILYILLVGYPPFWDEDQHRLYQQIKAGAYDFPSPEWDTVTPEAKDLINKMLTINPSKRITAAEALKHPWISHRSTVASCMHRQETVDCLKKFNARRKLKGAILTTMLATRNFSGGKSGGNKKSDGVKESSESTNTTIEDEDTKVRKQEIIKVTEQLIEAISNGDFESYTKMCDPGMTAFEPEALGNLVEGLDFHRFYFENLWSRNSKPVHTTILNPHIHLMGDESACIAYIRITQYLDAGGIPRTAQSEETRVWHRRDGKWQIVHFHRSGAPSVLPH
Effect on: enzyme activity
Action: inhibitor
Tested at: 10 µM
SMILES | inhibition
OCCN(CCO)c1nc(N2CCCCC2)c2nc(N(CCO)CCO)nc(N3CCCCC3)c2n1 | -8%
CCOC(=O)C1=C[C@@H](OC(CC)CC)[C@H](NC(C)=O)[C@@H](N)C1 | -7%
Cc1ncc(CO)c(C(=O)O)c1O | 3%
CC(O)(CCO)CC(=O)O (stereo not drawn) | 34%
C=C1[C@H](OC(=O)/C=C(\C)CC)C[C@@H](C(C)C)[C@@H]2[C@@H]([C@@H](C)OC(C)=O)C(=O)C[C@@H]12 | -9%
C[N+]1(C)[C@@H]2CC(OC(=O)C(O)(c3cccs3)c3cccs3)C[C@H]1[C@@H]1O[C@@H]12 (stereo partly drawn) | 1%
CN1c2c(nc(N)[nH]c2=O)NCC1CNc1ccc(C(=O)N[C@@H](CCC(=O)O)C(=O)O)cc1 (stereo partly drawn) | -31%
CCCCCCCCCCCCCCCCCCCCCCCC(=O)O | -2%

Series 4
Structure (SMILES): O=C1CCC(N2Cc3cc(C4CCN(Cc5ccccc5)CC4)ccc3C2=O)C(=O)N1 (stereo not drawn)
Action: degrader
GSPT1: Eukaryotic peptide chain release factor GTP-binding subunit ERF3A (GSPT1, Homo sapiens, UniProt P15170)
Sequence of UniProt P15170 (whole entry, looked up): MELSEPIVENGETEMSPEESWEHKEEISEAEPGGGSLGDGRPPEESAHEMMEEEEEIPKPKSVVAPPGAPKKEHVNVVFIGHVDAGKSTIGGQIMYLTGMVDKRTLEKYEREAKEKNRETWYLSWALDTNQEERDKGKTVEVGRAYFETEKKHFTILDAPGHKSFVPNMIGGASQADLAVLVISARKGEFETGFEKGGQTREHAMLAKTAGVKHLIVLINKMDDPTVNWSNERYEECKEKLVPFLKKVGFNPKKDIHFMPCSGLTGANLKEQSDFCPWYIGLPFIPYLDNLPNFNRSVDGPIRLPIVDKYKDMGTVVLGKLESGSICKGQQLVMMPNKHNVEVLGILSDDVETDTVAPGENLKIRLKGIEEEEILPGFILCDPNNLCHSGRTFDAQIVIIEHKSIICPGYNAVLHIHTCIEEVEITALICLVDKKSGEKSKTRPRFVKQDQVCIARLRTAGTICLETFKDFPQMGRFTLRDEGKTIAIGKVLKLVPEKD
SALL4: Sal-like protein 4 (SALL4, Homo sapiens, UniProt Q9UJQ4)
Sequence of UniProt Q9UJQ4 (whole entry, looked up): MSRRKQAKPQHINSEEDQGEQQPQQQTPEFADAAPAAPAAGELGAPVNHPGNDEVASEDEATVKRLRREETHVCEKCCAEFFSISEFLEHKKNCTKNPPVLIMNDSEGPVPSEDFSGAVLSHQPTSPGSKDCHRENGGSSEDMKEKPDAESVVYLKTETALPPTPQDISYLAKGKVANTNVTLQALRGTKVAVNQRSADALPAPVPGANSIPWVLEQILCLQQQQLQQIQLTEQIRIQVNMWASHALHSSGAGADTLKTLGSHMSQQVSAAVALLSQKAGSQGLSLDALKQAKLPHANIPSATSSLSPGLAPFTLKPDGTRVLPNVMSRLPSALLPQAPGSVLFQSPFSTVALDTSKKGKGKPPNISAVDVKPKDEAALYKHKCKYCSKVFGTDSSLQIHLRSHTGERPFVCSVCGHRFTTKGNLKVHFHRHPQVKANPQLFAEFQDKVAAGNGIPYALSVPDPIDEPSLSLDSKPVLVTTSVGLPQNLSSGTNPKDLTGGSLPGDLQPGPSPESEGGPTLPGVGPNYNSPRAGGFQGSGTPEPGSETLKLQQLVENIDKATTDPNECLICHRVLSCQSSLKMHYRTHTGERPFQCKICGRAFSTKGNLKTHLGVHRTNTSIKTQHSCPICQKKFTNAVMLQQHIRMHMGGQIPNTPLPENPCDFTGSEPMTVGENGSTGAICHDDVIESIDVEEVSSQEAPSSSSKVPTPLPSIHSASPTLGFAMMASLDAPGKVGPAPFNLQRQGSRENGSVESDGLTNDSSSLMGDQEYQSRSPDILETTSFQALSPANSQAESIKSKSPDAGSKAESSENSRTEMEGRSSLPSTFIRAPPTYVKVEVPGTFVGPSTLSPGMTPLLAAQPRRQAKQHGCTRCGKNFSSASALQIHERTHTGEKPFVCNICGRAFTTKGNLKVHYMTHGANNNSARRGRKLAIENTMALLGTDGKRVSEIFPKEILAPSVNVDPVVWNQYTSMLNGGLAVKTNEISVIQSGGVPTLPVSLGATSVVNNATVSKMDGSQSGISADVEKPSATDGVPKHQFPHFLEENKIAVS
IKZF4: Zinc finger protein Eos (IKZF4, Homo sapiens, UniProt Q9H2S9)
Sequence of UniProt Q9H2S9 (whole entry, looked up): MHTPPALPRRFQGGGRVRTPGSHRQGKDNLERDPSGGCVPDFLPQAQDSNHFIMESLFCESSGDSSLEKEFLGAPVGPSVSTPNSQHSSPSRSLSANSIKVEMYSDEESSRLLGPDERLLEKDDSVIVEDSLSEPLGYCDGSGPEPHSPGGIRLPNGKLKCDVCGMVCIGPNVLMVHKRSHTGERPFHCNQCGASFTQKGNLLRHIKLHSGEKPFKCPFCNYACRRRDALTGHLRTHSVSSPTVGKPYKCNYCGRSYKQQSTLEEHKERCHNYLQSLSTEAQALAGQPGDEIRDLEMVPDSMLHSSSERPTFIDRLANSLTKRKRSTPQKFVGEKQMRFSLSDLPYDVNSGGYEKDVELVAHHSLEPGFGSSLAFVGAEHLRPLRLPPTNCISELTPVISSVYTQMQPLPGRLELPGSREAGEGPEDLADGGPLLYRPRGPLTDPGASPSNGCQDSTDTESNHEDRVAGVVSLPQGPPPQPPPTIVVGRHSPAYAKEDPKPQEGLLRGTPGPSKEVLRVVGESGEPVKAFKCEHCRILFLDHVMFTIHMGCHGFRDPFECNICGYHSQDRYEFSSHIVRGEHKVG
CSNK1A1: Casein kinase I isoform alpha (CSNK1A1, Homo sapiens, UniProt P48729)
target | assay | test system | conditions | remaining protein
GSPT1 | HiBiT | HEK293 | 0.04115 µM | 91.4% and 111%
SALL4 | HiBiT | HEK293 | 10 µM, 6 h | 46.2%
IKZF4 | HiBiT | HEK293 | 0.0001524 µM, 6 h | 110%
CSNK1A1 | HiBiT | HEK293 | 0.004572 µM, 6 h | 86.7%
GSPT1 | HiBiT | HEK293 | 0.1235 µM, 6 h | 100%
CRBN/Zinc finger protein Helios (Homo sapiens, UniProt Q96SW2+Q9UKS7) | flow cytometry | primary human regulatory T cells | 0.004115 µM, 6 h | 101%
IKZF4 | HiBiT | HEK293 | 0.004115 µM, 6 h | 112%
SALL4 | HiBiT | HEK293 | 0.3704 µM, 6 h | 51.7%
CSNK1A1 | HiBiT | HEK293 HiBiT-CK1α | 0.5081 nM | 102% and 90.8%

Excerpt of the above (series 3):
SMILES | inhibition
C=C1[C@H](OC(=O)/C=C(\C)CC)C[C@@H](C(C)C)[C@@H]2[C@@H]([C@@H](C)OC(C)=O)C(=O)C[C@@H]12 | -9%
C[N+]1(C)[C@@H]2CC(OC(=O)C(O)(c3cccs3)c3cccs3)C[C@H]1[C@@H]1O[C@@H]12 (stereo partly drawn) | 1%
CCCCCCCCCCCCCCCCCCCCCCCC(=O)O | -2%
Cc1ncc(CO)c(C(=O)O)c1O | 3%
CC(O)(CCO)CC(=O)O (stereo not drawn) | 34%
CCOC(=O)C1=C[C@@H](OC(CC)CC)[C@H](NC(C)=O)[C@@H](N)C1 | -7%
